Experimental data gathered from unrelated publications.
Numbered parts are unrelated; each lists some results of a single study. Changes are numbered by the printed parent chain.

Set 1
Target: ABI1, truncated, D143A, DHFR fusion (Arabidopsis thaliana)
Method: DHFR PCA, deep sequencing
Sample: yeast
Notes: methotrexate growth selection, single substitutions
Together with: (+)-ABA 58 µM
Reference: wild-type fitted maximum
Reading: higher = stronger binding
Quantity: relative binding score
Starting sequence: PYL1, truncated, DHFR fusion (Arabidopsis thaliana); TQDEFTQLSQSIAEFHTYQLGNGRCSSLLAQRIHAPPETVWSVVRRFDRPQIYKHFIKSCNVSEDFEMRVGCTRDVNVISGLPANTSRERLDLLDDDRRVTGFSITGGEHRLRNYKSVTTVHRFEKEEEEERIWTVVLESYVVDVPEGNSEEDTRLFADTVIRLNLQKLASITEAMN
I52H: 78.9%
L112S: -1.68%
E4F: 74%
D92N: 55.4%
Y141E: 0.0636%
S9A: 98.5%
G102E: 10.3%

Set 2
Target: Interferon regulatory factor 7, full length, phosphomimetic (IRF7, Homo sapiens, UniProt Q92985, residues 1-503, S471D/S472D/S475D/S476D/S477D/S483D/S484D/S487D)
UniProt Q92985, sequence (whole entry, unmodified, looked up): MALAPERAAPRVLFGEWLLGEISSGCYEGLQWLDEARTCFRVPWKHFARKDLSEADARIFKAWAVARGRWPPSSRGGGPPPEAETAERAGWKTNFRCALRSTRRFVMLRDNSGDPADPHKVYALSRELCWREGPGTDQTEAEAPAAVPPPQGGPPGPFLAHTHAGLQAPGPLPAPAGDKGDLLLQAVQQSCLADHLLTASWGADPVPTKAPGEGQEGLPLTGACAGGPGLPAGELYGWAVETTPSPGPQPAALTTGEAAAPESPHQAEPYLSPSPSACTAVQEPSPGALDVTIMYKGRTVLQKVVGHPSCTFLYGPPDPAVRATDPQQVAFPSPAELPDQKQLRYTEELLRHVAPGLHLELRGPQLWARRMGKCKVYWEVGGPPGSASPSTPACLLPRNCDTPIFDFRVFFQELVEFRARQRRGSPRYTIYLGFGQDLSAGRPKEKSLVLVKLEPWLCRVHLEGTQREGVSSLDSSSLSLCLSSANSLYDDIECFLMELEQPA
Method: protein-binding microarray
Molecule type: double-stranded DNA, one strand shown
Sample: in vitro
Concentration: 2200 nM top
Notes: 60-bp whole probe
Together with: salmon DNA 0.4 mg/ml
Reference: random background probes
Reading: higher = stronger binding
Quantity: fitted relative affinity
All sequences stand within: GCCTAGCACT … GTCTTGATTCGCTTGACGCTGCTG
CATCATTCCAATTCTTACTGTGCTAG: 1.85 z-score
TAGGTCTCGGTATCGGTTAGTGCTAG: 0.862 z-score
CACTTTCCTTACTTCCCACTGTGCTA: 5.26 z-score
ACGGTCTCGGTCTCGGGACGTGCTAG: 0.176 z-score
CAGCTCTGTGCATAGGACTGTGCTAG: 0.227 z-score
TAGGTTTCGGTGCCGGTTAGTGCTAG: 3.05 z-score
TCTGTATGGGCATTTTTCTAGTGCTA: 0.024 z-score
CCGTATGGATGGCCAATTGGTGCTAG: 0.0263 z-score
CATGTTTCCATCTCTCACTGTGCTAG: 3.56 z-score

Set 3
Target: Centromere-binding protein 1, full length, His-tagged (CBF1, Saccharomyces cerevisiae, UniProt P17106, residues 1-351)
UniProt P17106, sequence (whole entry, looked up): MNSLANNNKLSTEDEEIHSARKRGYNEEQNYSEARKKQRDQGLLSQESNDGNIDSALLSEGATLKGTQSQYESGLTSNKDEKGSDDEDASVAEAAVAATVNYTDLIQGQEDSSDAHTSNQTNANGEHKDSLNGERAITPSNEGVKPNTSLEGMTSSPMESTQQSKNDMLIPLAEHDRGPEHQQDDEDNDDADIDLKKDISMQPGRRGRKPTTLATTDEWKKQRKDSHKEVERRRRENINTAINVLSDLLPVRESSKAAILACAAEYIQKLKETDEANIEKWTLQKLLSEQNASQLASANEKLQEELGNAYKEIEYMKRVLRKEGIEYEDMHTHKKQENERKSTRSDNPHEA
Method: competition protein-binding microarray
Molecule type: double-stranded DNA, one strand shown
Sample: in vitro
Concentration: 2 µM
Notes: whole 60-bp probe, lowest competitor level
Together with: Pho4 competitor, 0.05 µM
Reading: higher = stronger binding
Quantity: fluorescence intensity
All sequences stand within: … GTCTTGATTCGCTTGACGCTGCTG
ACCTTCTTTGGCGTTGTTGTGACGGAGACTTCCTGT: 65.2 a.u.
GTCTTGTCTCATTGATGGGTGGGTGTCCCCACTTCA: 96.7 a.u.
AAAGCGGTAATTTGGCGTGTGGGTGCAGATATCTAT: 84.9 a.u.
CTGCATAGGTGGTTACACGGGGATGGTTTTTCTCTT: 97.1 a.u.
CTACCGTCAAATATACACGTGTAGTCCCTGGATTTG: 1250 a.u.
TCCAACGTATCAGTGCGCGTAATCCTTCTCTTGGTA: 57.7 a.u.
ATTCAACTTTGCTTCCACGTTAGTAGACAGTGGACC: 72.1 a.u.
TCTAACTGGGCCCTTCACGTTTCTGACAATAGTTCT: 91.3 a.u.
CTCTTTCAGATTCGTCACGATTTTATGAAAGAAATA: 157 a.u.
AATAAGACGGACGGCCACGTGACGGAAGATTTTTTT: 4540 a.u.
TGCGCAACAACTTATCACGTGTTTTTATGTCTAGAA: 6290 a.u.

Other studies, line by line
PhoQ, residues 284 288 289 292 302 303 HSSMNL — fold induction (PhoP, residues 12 14 15 18 19 MHTVL (Escherichia coli, UniProt P23836); Sort-seq, measured: YFP reporter; E. coli; PhoQ-PhoP variant library, together with: 10 µM Mg2+; reference: high Mg2+ state, higher = stronger signaling): 0.517

For quick reference, copied from above (set 2):
CATCATTCCAATTCTTACTGTGCTAG: 1.85 z-score
CCGTATGGATGGCCAATTGGTGCTAG: 0.0263 z-score
CACTTTCCTTACTTCCCACTGTGCTA: 5.26 z-score
CAGCTCTGTGCATAGGACTGTGCTAG: 0.227 z-score
